Published values from different studies.
Parts stem from different laboratories: compare values within a part only. Substitutions count along the parent as printed.

Set 1 — technique: protein binding microarray; molecule type: double-stranded DNA, one strand shown; matrix: in vitro; concentration: not given; relative to: not given; reading: higher = stronger binding
Target: Histone acetyltransferase KAT6A, winged helix 1, GST fusion (KAT6A, Homo sapiens, UniProt Q92794, residues 1-85)
Setting: 8-mer, flanks averaged, mean of 2 arrays, mostly near background
Construct (chain): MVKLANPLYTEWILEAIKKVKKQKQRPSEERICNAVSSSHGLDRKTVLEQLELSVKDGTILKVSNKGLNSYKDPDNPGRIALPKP
`AAATGATA` has an E-score of -0.0118.
For `AGAAAAAC`, the E-score was -0.0159.
With `AAGTCAAT` the E-score was -0.11.
`CATCGACC` gave an E-score of -0.0912.
With `CATGAGAG` the E-score was -0.151.

Set 2 — target: CCNA2, cyclin fold, Cln2 fusion (human); technique: yeast growth competition, sequencing; matrix: yeast; setting: strong parent motif; relative to: not given; reading: higher = stronger binding
Starting sequence: GMNC docking peptide (human); KNAKRNLSSEFAN
For `KNAKRNFSSEFAN [L7F]`, “normalised enrichment score” read 0.483.
`KNAKRNLTSEFAN [S8T]`: “normalised enrichment score” 4.48.
For `KNAKRNLSSEFPN [A12P]`, “normalised enrichment score” read 2.37.
`KNAKRNKSSEFAN [L7K]` — result for “normalised enrichment score”: 1.18.

Set 3 — technique: RNA Bind-n-Seq; molecule type: RNA; matrix: in vitro; concentration: 200 nM; setting: whole 134-nt RNA, ends assumed; with: 150 mM KCl; relative to: input library; reading: higher = stronger binding
Target: Ras GTPase-activating protein-binding protein 1, full length (G3BP1, Homo sapiens, UniProt Q13283)
Chain of UniProt Q13283 (whole entry, looked up): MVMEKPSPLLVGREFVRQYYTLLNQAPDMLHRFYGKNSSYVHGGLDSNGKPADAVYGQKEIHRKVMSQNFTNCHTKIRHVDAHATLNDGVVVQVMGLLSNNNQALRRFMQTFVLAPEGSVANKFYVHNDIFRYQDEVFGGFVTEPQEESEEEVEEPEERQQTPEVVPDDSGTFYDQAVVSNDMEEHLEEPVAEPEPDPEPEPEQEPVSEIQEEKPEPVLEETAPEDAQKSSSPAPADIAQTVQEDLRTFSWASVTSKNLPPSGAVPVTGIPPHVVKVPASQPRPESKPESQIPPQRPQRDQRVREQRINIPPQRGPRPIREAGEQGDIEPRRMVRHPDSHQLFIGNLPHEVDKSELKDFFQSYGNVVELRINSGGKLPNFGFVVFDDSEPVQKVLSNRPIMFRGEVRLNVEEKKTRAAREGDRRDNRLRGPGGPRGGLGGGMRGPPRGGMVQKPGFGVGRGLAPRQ
For `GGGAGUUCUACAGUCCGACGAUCUGGGGACAAGCUGACAGCAGCCAUGGCGAGCGGCAGUGGAGACAGCGUCACCCGUCGGAGCGUGGCAUCACAGUUUUUCACUCAAGAGGAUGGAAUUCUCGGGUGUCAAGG`, the log2 enrichment was -1.54.
The log2 enrichment of `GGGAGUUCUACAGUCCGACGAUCUUUGGCAAUGAGAUCUAAACCAGACAAAGACCUCCUUAUGGAAGAAGAUGACAUGGCCUUGGCAAAUGUAGUCAUGCAGGAAGCUCAGAAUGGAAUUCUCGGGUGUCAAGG` is reported as -0.837.
`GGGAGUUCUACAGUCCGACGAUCUCCUGUGCUACACAUCGUAUGUACCGAAUCGGGAAAAAAGGGAAAAAAGGAAAAAAGGGAAAGUAUUAUGUUACGCCGUUCGGAUCUGCAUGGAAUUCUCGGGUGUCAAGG` has a log2 enrichment of -0.454.
`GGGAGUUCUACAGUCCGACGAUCGUCCUGUGCUACACAUCGUAUGUACCGAAUCGGGGUUUGGGGUUUUUGGGGUUUGGGGAAAGUAUUAUGUUACGCCGUUCGGAUCUGCACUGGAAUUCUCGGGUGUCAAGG` has a log2 enrichment of 0.52.
`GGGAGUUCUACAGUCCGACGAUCACCAUGCAGGUGGGCAUCUUUGGGAAGUGGGGCAAGGGGGGGAUAGGGAGGGGGGUAACACUUUGGGAACAGGUGGUCCCAGGUCGUAAAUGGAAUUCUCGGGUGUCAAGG` has a log2 enrichment of 1.23.

Single results of other studies
`PhoQ, residues 284 288 289 292 302 303 SSTMSV` has a fold induction of 14.9 (PhoP, residues 12 14 15 18 19 IFFTR (Escherichia coli, UniProt P23836); Sort-seq, item: YFP reporter; E. coli; PhoQ-PhoP variant library, with: 10 µM Mg2+; relative to: high Mg2+ state, higher = stronger signaling).

Repeated from above (set 2):
`KNAKRNKSSEFAN [L7K]` — result for “normalised enrichment score”: 1.18.
